Results of several laboratories.
Protocols differ between the studies behind these lines. Numbers after ± are the reported error.
Histone acetyltransferase RTT109 with Vps75: Histone acetyltransferase RTT109, with Vps75 (Saccharomyces cerevisiae, UniProt Q07794)
Sequence of UniProt Q07794 (whole entry, looked up): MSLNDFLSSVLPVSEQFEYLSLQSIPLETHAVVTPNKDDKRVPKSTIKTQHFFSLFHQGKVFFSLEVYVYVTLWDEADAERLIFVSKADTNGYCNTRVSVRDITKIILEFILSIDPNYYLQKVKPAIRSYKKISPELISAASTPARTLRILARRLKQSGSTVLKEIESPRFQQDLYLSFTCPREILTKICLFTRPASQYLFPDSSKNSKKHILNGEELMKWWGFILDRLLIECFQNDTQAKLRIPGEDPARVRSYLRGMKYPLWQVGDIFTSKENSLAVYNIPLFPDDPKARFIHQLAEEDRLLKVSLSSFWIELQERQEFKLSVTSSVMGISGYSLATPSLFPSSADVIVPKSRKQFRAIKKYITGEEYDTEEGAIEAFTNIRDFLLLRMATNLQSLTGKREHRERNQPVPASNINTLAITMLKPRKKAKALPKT
serine/threonine phosphatase Stp1: serine/threonine phosphatase Stp1 (Staphylococcus aureus, UniProt A0A0H2XF73)
BRD4 BD2: Bromodomain-containing protein 4, BD2 (BRD4, Homo sapiens, UniProt O60885)
CTNNB1 with BCL9 HD2: Catenin beta-1, with BCL9 HD2 (CTNNB1, Homo sapiens, UniProt P35222)
Sequence of UniProt P35222 (whole entry, looked up): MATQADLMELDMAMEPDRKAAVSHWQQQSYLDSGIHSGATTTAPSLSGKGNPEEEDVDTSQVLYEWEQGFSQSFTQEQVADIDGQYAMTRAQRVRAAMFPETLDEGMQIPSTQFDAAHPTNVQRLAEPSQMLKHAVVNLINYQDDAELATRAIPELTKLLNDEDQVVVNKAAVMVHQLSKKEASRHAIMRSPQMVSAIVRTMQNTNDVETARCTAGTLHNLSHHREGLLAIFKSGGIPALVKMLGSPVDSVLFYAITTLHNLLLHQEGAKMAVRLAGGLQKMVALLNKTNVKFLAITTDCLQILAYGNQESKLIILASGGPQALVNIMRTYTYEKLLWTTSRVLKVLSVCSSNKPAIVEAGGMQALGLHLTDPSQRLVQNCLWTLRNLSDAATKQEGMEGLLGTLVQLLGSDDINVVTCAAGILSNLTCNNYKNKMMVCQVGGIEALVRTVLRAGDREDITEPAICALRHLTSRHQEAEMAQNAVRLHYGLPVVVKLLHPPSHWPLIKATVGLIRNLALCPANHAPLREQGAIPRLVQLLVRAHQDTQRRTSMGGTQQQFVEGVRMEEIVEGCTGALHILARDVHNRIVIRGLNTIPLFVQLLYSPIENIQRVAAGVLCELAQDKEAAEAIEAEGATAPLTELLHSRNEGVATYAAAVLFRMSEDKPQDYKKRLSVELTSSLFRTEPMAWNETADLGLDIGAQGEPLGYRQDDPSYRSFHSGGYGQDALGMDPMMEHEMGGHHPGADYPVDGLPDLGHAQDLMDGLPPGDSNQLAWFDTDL
TACR1: Substance-P receptor (TACR1, Homo sapiens, UniProt P25103)
Sequence of UniProt P25103 (whole entry, looked up): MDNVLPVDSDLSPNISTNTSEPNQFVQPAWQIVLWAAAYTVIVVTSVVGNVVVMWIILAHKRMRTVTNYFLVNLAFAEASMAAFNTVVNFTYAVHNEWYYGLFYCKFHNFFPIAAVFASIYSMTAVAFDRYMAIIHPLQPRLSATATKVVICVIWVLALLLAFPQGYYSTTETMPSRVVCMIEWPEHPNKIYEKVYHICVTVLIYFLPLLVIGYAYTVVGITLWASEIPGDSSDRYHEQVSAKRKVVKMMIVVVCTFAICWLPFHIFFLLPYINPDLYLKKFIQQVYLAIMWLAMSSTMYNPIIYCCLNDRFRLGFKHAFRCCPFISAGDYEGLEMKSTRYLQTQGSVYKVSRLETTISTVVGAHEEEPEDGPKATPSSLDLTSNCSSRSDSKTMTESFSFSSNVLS
SIRT2: NAD-dependent protein deacetylase sirtuin-2 (SIRT2, Homo sapiens, UniProt Q8IXJ6)
Sequence of UniProt Q8IXJ6 (whole entry, looked up): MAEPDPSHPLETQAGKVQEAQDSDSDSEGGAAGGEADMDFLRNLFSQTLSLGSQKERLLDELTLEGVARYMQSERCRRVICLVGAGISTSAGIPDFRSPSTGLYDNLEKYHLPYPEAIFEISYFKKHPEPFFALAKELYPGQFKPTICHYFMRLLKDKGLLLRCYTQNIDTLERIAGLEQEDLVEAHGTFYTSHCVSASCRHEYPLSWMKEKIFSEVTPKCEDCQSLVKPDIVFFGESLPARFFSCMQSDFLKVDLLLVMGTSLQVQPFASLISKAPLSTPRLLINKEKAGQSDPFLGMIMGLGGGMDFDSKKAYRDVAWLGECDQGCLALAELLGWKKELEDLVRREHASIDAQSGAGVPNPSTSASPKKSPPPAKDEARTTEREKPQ
CYP2C8: Cytochrome P450 2C8 (CYP2C8, Homo sapiens, UniProt P10632)
Sequence of UniProt P10632 (whole entry, looked up): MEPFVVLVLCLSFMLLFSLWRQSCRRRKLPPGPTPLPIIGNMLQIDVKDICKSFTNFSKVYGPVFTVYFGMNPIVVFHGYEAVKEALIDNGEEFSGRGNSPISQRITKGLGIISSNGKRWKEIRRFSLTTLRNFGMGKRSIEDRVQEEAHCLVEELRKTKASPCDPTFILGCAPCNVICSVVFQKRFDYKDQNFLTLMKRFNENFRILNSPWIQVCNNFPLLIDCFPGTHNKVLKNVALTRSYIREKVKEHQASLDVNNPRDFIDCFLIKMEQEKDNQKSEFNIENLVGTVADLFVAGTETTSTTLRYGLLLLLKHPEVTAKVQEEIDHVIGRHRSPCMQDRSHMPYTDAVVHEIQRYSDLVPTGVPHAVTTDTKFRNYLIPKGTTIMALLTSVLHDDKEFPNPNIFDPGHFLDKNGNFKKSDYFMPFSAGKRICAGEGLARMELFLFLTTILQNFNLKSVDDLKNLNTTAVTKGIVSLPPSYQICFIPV
UCHL1: Ubiquitin carboxyl-terminal hydrolase isozyme L1 (UCHL1, Homo sapiens, UniProt P09936)
Sequence of UniProt P09936 (whole entry, looked up): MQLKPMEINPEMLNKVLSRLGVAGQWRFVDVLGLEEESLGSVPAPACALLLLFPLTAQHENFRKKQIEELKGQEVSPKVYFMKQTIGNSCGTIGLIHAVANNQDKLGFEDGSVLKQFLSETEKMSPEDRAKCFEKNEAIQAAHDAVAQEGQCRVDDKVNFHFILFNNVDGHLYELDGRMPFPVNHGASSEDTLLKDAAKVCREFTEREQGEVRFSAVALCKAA
LYN: Tyrosine-protein kinase Lyn (LYN, Homo sapiens, UniProt P07948)
Sequence of UniProt P07948 (whole entry, looked up): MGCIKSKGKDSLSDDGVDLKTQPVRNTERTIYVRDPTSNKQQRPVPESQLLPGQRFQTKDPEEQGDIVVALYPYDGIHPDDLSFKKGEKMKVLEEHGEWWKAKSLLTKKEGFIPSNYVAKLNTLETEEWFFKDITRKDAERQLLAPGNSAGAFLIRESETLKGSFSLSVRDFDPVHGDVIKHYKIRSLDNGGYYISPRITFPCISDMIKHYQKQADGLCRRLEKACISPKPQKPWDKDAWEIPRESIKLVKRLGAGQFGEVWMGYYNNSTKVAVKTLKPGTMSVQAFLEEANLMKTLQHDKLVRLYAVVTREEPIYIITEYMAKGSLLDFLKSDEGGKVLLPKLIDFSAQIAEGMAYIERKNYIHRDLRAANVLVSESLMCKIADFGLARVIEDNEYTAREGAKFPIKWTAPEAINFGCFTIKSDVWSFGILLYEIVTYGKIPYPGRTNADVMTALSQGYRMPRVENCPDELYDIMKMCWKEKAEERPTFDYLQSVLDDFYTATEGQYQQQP
BRD4 BD1: Bromodomain-containing protein 4, BD1 (BRD4, Homo sapiens, UniProt O60885)
Faah: Fatty-acid amide hydrolase 1 (Faah, Rattus norvegicus, UniProt P97612)
Sequence of UniProt P97612 (whole entry, looked up): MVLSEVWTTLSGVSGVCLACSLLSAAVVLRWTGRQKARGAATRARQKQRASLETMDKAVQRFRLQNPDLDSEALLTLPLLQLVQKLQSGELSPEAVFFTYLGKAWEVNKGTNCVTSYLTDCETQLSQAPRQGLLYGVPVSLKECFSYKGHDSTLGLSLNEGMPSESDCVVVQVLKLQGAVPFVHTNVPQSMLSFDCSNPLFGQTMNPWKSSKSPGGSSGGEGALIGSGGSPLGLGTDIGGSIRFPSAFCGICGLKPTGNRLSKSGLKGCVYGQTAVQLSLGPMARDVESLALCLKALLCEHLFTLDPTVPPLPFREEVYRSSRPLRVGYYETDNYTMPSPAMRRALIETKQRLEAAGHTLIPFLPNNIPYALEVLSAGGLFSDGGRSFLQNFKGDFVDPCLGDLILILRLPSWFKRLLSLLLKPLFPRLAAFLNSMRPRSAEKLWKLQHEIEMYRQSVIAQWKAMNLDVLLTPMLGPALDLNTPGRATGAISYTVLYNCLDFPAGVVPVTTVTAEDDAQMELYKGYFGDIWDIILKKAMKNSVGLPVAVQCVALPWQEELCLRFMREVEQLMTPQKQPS
Sequence of UniProt Q9SCZ4 (whole entry, unmodified, looked up): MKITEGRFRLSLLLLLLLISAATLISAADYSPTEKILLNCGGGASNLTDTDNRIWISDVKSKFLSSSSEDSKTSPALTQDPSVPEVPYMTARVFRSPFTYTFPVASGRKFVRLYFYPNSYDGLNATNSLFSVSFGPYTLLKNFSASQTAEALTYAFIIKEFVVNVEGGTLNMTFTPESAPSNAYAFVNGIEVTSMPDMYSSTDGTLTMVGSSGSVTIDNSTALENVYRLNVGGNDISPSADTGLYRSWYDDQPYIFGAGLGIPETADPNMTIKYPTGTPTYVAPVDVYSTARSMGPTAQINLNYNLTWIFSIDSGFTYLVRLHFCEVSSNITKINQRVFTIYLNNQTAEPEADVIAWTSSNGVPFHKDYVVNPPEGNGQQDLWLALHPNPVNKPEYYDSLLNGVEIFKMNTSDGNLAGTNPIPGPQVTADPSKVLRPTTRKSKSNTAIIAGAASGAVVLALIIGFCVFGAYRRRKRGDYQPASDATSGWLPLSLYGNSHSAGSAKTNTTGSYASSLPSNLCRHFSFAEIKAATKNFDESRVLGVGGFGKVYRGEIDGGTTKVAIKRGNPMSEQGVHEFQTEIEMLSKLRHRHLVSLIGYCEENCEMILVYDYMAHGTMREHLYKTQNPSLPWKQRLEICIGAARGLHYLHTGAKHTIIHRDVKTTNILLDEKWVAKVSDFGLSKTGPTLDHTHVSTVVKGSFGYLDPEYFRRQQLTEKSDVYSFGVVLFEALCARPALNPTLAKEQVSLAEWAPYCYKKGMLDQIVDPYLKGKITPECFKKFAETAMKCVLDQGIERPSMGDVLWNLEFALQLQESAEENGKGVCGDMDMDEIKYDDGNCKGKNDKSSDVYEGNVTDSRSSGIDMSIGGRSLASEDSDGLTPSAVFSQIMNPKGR
Sequence of UniProt P00760 (whole entry, looked up): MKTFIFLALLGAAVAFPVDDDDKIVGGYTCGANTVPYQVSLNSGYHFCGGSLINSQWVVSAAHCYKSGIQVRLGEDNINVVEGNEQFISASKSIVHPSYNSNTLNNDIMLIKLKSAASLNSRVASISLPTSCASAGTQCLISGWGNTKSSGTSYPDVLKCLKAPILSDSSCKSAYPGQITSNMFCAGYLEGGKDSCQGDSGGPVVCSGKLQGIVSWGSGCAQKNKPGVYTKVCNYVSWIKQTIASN

Compound | target | assay | system | conditions | IC50 [µM]
Cc1cc(C)n(Cc2ccc(C(=O)NC3CS(=O)(=O)c4ccccc43)cc2)n1 (stereo not shown) | Histone acetyltransferase RTT109 with Vps75 | enzyme activity, inhibitor, HTS, CPM-based, dose response |  |  | > 125
COc1cc([C@@H]2c3cc4c(cc3[C@H](O)[C@H]3COC(=O)[C@H]23)OCO4)cc(OC)c1OC | serine/threonine phosphatase Stp1 | enzyme activity, inhibitor |  | together with: pNPP | > 241
Cc1ccc(C(=O)Nc2ccc(S(=O)(=O)O)c3cc(S(=O)(=O)O)cc(S(=O)(=O)O)c23)cc1NC(=O)c1cccc(NC(=O)Nc2cccc(C(=O)Nc3cc(C(=O)Nc4ccc(S(=O)(=O)O)c5cc(S(=O)(=O)O)cc(S(=O)(=O)O)c45)ccc3C)c2)c1 | Uncharacterized protein (Trypanosoma brucei, UniProt Q38AT7) |  |  |  | 7
CC(=O)c1cnc2ccc(-c3cc(Cl)c(O)c(Cl)c3)nc2c1N[C@H]1CC[C@H](CN(C)C)CC1 | Receptor-like protein kinase FERONIA (FER, Arabidopsis thaliana, UniProt Q9SCZ4, K565A) | kinase activity, inhibitor, ADP-Glo |  |  | > 100
O=C1CCC(N2Cc3cc(CNC(=O)c4ccc(F)cc4)ccc3C2=O)C(=O)N1 (stereo not shown) | Protein cereblon, with DDB1 (CRBN, Homo sapiens, UniProt Q96SW2) | binding, competitor, fluorescence polarization |  | together with: Cy5-labelled lenalidomide probe | 1.4
CN(C)C(=O)c1cc2cnc(Nc3ccc(-c4cccc5c(=O)cc(N6CCOCC6)oc45)cc3)nc2n1C1CCCC1 | BRD4 BD2 | inhibitor |  |  | 0.693
NC(=O)Nc1cc(-c2cccc(F)c2)sc1C(=O)N[C@H]1CCCNC1 | Receptor-like protein kinase FERONIA (FER, Arabidopsis thaliana, UniProt Q9SCZ4) | inhibitor |  |  | 0.08
O=C(CCn1cnc2ccccc2c1=O)Nc1ccc(S(=O)(=O)N2CCCCCC2)cc1 | CTNNB1 with BCL9 HD2 | BCL9 binding, inhibitor, AlphaScreen |  |  | 5.41
FC(F)(F)c1cc(CO[C@H]2CCCN[C@H]2c2ccccc2)cc(C(F)(F)F)c1 | TACR1 | intracellular calcium increase, antagonist | U373 MG | together with: substance P 100 nM | < 0.1
N=C(N)c1ccc(OCCCCCOc2ccc(C(=N)N)cc2)cc1 | Serine protease 1 (PRSS1, Bos taurus, UniProt P00760) | enzyme activity, inhibitor |  |  | 2.6 ± 0.4
O=S1(=O)CC(O)c2ccccc21 (stereo not shown) | Histone acetyltransferase RTT109 with Vps75 | enzyme activity, inhibitor, HTS, CPM-based, dose response |  |  | > 125
O=C(Cn1c2ccccc2c(=O)c2ccccc21)Nc1ccccc1Oc1ccccc1 | CTNNB1 with BCL9 HD2 | BCL9 binding, inhibitor, AlphaScreen |  |  | 26.4
CN1CCN(c2ccc(Nc3ncc4cc(C#N)c(=O)n(C5CCCC5)c4n3)cc2)CC1 | STK25 (Homo sapiens, UniProt O00506) |  |  |  | 4.91
CCCCCCCCCCCCNC(=S)NCCCC[C@H](NC(C)=O)C(=O)N[C@@H](C)C(=O)N[C@@H](CCCNC(=N)N)C(N)=O | SIRT2 | enzyme activity, inhibitor |  |  | 0.23 ± 0.05
CCOc1cc(-c2nncn2C)ccc1Nc1ncc2cc(C)nc(NCC(C)(C)C)c2n1 | CYP2C8 | enzyme activity, inhibitor |  |  | 10 to 50
O=C1CC(S/C(=N\c2ccccc2)Nc2ccccc2)C(=O)N1c1ccc(Br)cc1 (stereo not shown) | Histone acetyltransferase RTT109 with Vps75 | enzyme activity, inhibitor, HTS, CPM-based, dose response |  |  | > 125
Cc1ccc2[nH]nc(-c3nnc(Nc4ccc(Br)cc4)s3)c2c1 | thymidine phosphorylase | enzyme activity, inhibitor, spectrophotometric |  | pH 7.5, 25 °C | 17.7 ± 1.2
CC(=O)N1/C(=C\c2nc3cc(C(=O)N4CCOCC4)ccc3s2)C(=O)c2ccccc21 | RAF proto-oncogene serine/threonine-protein kinase, RBD (RAF1, Homo sapiens, UniProt P04049) | HRAS G12V-GppNHp binding, allosteric inhibitor, ELISA |  | 1 h preincubation, pH 7.4, 30 °C | 1.15
C=C(NC(=O)[C@H](CCCCNC(=S)NCCCCCCCCCCCC)NS(C)(=O)=O)C(=O)N[C@@H](CCCNC(=N)N)C(N)=O | SIRT2 | enzyme activity, inhibitor |  |  | 0.18 ± 0.03
CC1(C)CC[C@]2(C(=O)O)CC[C@]3(C)C(=CC[C@@H]4[C@@]5(C)CC[C@H](O)C(C)(C)[C@@H]5CC[C@]43C)[C@@H]2C1 | ACE (Oryctolagus cuniculus, UniProt P12822) | enzyme activity |  |  | 18.4 ± 1.21
O=C(O)c1cc(O)c2c(c1)[C@H]([C@H]1c3cc(C(=O)O)cc(O)c3C(=O)c3c(O[C@@H]4O[C@H](CO)[C@@H](O)[C@H](O)[C@H]4O)cccc31)c1cccc(O[C@@H]3O[C@H](CO)[C@@H](O)[C@H](O)[C@H]3O)c1C2=O | serine/threonine phosphatase Stp1 | phosphatase activity, inhibitor |  |  | > 74.2
COc1cccc(NC(=O)C(C#N)=Cc2cccc(Cl)c2Cl)c1 | UCHL1 | inhibitor, ubiquitin-rhodamine cleavage |  | 2 h preincubation | > 200
CCN(CC)CCCC(C)Nc1ccnc2cc(Cl)ccc12 (stereo not shown) | ULK2 (Homo sapiens, UniProt Q8IYT8) | enzyme activity, inhibitor |  | together with: 10 µM ATP | > 10
Cc1cnc(-c2ccc(-c3ccc(NC(=O)Nc4c(F)cc(F)cc4F)cc3F)c3c2C(=O)NC3)[nH]1 | LYN | enzyme activity, inhibitor, mobility shift |  | together with: ATP 1 mM | 0.0177
COc1ccc(NC(=O)C(C#N)=Cc2cccc(O)c2)cc1Cl | UCHL1 | inhibitor, ubiquitin-rhodamine cleavage |  | 2 h preincubation | 160

Compound | target | assay | system | conditions | IC50 [µM]
COc1ccc(-c2cc(=O)c3ccc(Nc4ncc5cc(C(=O)N(C)C)n(C6CCCC6)c5n4)cc3o2)cc1 | BRD4 BD2 | inhibitor |  |  | > 10
CCOC(=O)c1c(NC(=O)CNC(C)C)sc2c1CCCCC2 | Glycogen synthase kinase-3 beta, with Nav1.6 (GSK3B, Homo sapiens, UniProt P49841) | Nav1.6-GSK3β assembly, inhibitor, split-luciferase complementation | HEK293 cells (transfected) |  | 26.2
COc1cc(O)c(CC=C(C)C)c(O)c1C(=O)/C=C/c1ccc(O)cc1 | CYP2C8 | enzyme activity, inhibitor | human liver microsomes | pH 7.4, together with: amodiaquine | 1.1 ± 0.1
NC1CS(=O)(=O)c2ccccc21 (stereo not shown) | Histone acetyltransferase RTT109 with Vps75 | enzyme activity, inhibitor, HTS, CPM-based, dose response |  |  | > 125
CN(C)C(=O)c1cc2cnc(Nc3ccc(-c4ccc5c(=O)cc(N6CCOCC6)oc5c4)cc3)nc2n1C1CCCC1 | BRD4 BD1 | inhibitor |  |  | > 10
O=C(CCCCCCC(=O)Nc1ccc(CCF)cc1)NO | HDAC7 (Homo sapiens, UniProt Q8WUI4) |  |  |  | 0.085
CCn1c(-c2nc3ccc(C(=O)N4CCCC(N)C4)cc3n2C)cc2ccccc21 (stereo not shown) | TACR1 | intracellular calcium, antagonist, luminescence |  |  | > 39.8
C=CC(=O)Nc1cccc(Oc2nc(Nc3ccc(N4CCN(C)CC4)cc3)nc3ccoc23)c1 | LYN |  |  |  | 3.97
Sc1nnc(-c2ccncc2)o1 | Histone acetyltransferase RTT109 with Vps75 | enzyme activity, inhibitor, HTS, CPM-based, dose response |  |  | > 125
CC[C@@H]1[C@H](F)C(=O)N[C@@H]1COc1nccc2cc(C(N)=O)c(OC)cc12 | PTK2B (Homo sapiens, UniProt Q14289) | ATP-site binding, ActivX kinase profiling | THP-1 cell lysate | PYK2 activation-loop probe peptide | > 5
Cc1c(-c2ccccc2)oc2c(C(=O)OCCN3CCCCC3)cccc2c1=O | Anoctamin-1 (Ano1, Mus musculus, UniProt Q8BHY3) | chloride current | HEK293 transfected | at +80 mV | 32.8
O=C(Nc1cccnn1)N1CCC(=Cc2cccc(Oc3ccc(C(F)(F)F)cn3)c2)CC1 | Faah | enzyme activity, inhibitor | rat brain membranes | 30 min preincubation | 0.0027
CN(C)C(=O)c1cc2cnc(Nc3cccc(-c4cccc5c(=O)cc(N6CCOCC6)oc45)c3)nc2n1C1CCCC1 | BRD4 BD1 | inhibitor |  |  | > 10
Cc1nc(-c2cnc(NC(C)C)n(C)c2=O)ccc1Oc1ccnc(-c2cnn(C)c2)c1 | CYP2C8 | time-dependent inhibition, inhibitor |  | 30 min preincubation without NADPH | 94
COc1cc2nccc(Oc3ccc(NC(=O)c4cc5c(n(-c6ccccc6)c4=O)CCCC5=O)nc3)c2cc1OC | LYN | cell viability, CellTiter-Glo | Ba/F3 expressing recombinant kinase | 48 h | > 0.1
COc1ccc2c(=O)[nH]c3c(nnn3Cc3ccc(C)cc3)c2c1 | PARP3 (Homo sapiens, UniProt Q9Y6F1) |  |  |  | > 10
CN(C)C(=O)c1cc2cnc(Nc3cncc(-c4cccc5c(=O)cc(N6CCOCC6)oc45)c3)nc2n1C1CCCC1 | BRD4 BD2 | inhibitor |  |  | > 10
Cc1cc([C@@H](C)Nc2ccccc2C(=O)O)c2nc(N3CCCCC3)cc(=O)n2c1 | Phosphatidylinositol 4,5-bisphosphate 3-kinase catalytic subunit alpha isoform, with p85 alpha (PIK3CA, Homo sapiens, UniProt P42336, E542K) | ADP-Glo |  | together with: ATP 10 µM | > 10
O=S1(=O)C=C(SCCN2CCOCC2)c2ccccc21 | Histone acetyltransferase RTT109 with Vps75 | enzyme activity, inhibitor, HTS, CPM-based, dose response |  |  | > 125
Cc1cc(C)nc(SCC(=O)Nc2ncc(Cc3cccc(OCc4cn(Cc5ccccc5C)nn4)c3)s2)n1 | SIRT2 | inhibitor |  |  | 0.76 ± 0.16
CCC(=O)Nc1nc(-c2ccccc2)ns1 | Histone acetyltransferase RTT109 with Vps75 | enzyme activity, inhibitor, HTS, CPM-based, dose response |  |  | > 125
O=C(Nc1cnccc1Cl)N1CCN(Cc2ccc3c(c2)OC(F)(F)O3)CC1 | Faah | enzyme activity, inhibitor | rat brain membranes | 0 min preincubation | 0.473
CC[C@H](C)[C@H](N)C(=O)O | ilvA (Escherichia coli, UniProt P04968) | enzyme activity, inhibitor |  |  | 9.6
O=S1(=O)C=C(N2CCN(C3CCCCC3)CC2)c2ccccc21 | Histone acetyltransferase RTT109 with Vps75 | enzyme activity, inhibitor, HTS, CPM-based, dose response |  |  | > 125
